Experimental data collected from several papers.
Lines come from different studies, so protocols differ. Several values in a cell are separate wells, animals, samples, runs or records. ± marks the error that the study gave.
UniProt P10632, sequence (whole entry, looked up): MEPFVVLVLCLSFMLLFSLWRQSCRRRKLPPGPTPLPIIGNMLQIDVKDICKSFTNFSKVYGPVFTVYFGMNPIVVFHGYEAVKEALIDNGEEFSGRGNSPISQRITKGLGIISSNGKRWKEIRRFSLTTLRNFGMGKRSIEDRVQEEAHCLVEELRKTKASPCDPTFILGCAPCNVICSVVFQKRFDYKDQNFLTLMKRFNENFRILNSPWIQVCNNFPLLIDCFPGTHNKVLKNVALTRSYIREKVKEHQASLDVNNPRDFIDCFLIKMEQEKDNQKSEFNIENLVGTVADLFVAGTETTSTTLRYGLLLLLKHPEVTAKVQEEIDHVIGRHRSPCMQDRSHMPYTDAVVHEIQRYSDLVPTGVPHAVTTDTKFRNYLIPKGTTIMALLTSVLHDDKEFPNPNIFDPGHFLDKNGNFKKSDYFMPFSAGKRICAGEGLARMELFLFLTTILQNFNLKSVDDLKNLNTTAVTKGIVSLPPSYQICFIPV

Cc1nccc2c1c(=O)n(C)c1cc(OC[C@@H](N)CC(C)C)c(C#N)cc21 — concentration (rat, plasma; intrathecal, 1 µg, 30 min): 3.7 nM
CCOC(=O)c1ccc2nc(NC(=O)c3cccs3)sc2c1 — maximum haemolysis (sheep erythrocytes; 1 h, pH 7.5): 14.9%
Cc1nn(C)cc1S(=O)(=O)NC(=O)c1ccc(-n2ccc(OCC(C)(C)C(F)(F)F)n2)nc1N1C[C@@H](C)CC1(C)C — pKa (basic): < 2
O=C(c1nc2n(n1)[C@H](c1ccccc1)C[C@@H]2F)C1CC1 — AUC0-inf ratio (human; oral, 75 mg; baseline: high-fat meal over fasted): 0.984
CNC(=O)c1ccc(-c2cnc3ncc(Cc4ccc5ncccc5c4)n3n2)cc1F — bilirubin increase incidence (all grades) (CTCAE v4.0, any causality; human cancer patients; oral, 600 mg twice daily, expansion, other tumours, RP2D): 6%
N#Cc1ccc(-c2cnc3ccc(-c4ccc(C(=O)N5CCOCC5)cc4)cn23)cc1 — placebo-corrected change from baseline (refers to: PR interval; healthy volunteers; oral, 20 mg, fasted, time-averaged): -3.6 ms
O=C(CCCN1CC=C(n2c(=O)[nH]c3ccccc32)CC1)c1ccc(F)cc1 — mean blood pressure (male Hartley guinea pigs, anaesthetized; intravenous, 0.1 mg/kg over 10 min, after infusion): 31 ± 0.2 mmHg
CCCCCCCOc1ccc(CCC(N)(CO)CO)cc1C(F)(F)F.Cl — AUC(0-tau) (healthy men, plasma; oral, 0.25 mg, day 1): 2.59 ng·h/mL
CN[C@H]1C(=O)N[C@@H]2Cc3ccc(cc3)Oc3cc4cc(c3O[C@@H]3O[C@H](C(=O)O)[C@@H](O)[C@H](O)[C@H]3NC(=O)CCCCCCCCC(C)C)Oc3ccc(cc3Cl)[C@@H](O)[C@@H]3NC(=O)[C@H](NC(=O)[C@@H]4NC(=O)[C@@H](NC2=O)c2cc(cc(O)c2Cl)Oc2cc1ccc2O)c1ccc(O)c(c1)-c1c(O[C@H]2O[C@H](CO)[C@@H](O)[C@H](O)[C@@H]2O)cc(O)cc1[C@@H](C(=O)NCCCN(C)C)NC3=O — intercompartmental clearance (population PK model; paediatric patients; reference weight 70 kg): 0.794 L/h
Cc1cc([C@H]2C[C@H]3[C@@H](CF)SC(N)=N[C@@]3(c3ccc(F)cc3F)CO2)on1 — brain concentration (male 129/SVE wild-type mouse, brain; subcutaneous, 100 mg/kg, 14 h): 92 nM
Cc1c(C(=O)Nc2ccc(N3C[C@@H](C)O[C@@H](C)C3)nc2)cccc1-c1ccc(OC(F)(F)F)cc1 — central volume of distribution (PK model; mouse; oral, 40 mg/kg/day): 46.2 mL
O=C(Nc1nc2cccc(-c3ccc(CN4CCS(=O)(=O)CC4)cc3)n2n1)C1CC1 — treatment-emergent adverse events (refers to: dysgeusia; human rheumatoid arthritis patients; oral, 200 mg once daily, 4 weeks, regardless of relatedness): 0%
C=CC(=O)N(C)CCOc1c(N)ncnc1-c1cc(F)cc(NC(=O)c2ccc(C3CC3)cc2F)c1C — AUC(0-last) per dose (human; oral, 20 mg, day 7, arithmetic mean, with: ritonavir): 20.8 ng·h/mL/mg
C[C@H]1CN(C(=O)CC#N)[C@]12CCN(c1ncnc3[nH]ccc13)C2 — subjects with Dizziness (healthy human; oral, 1.5 mg, single dose): 12.5%
Cc1cc(C)c(CNC(=O)c2cc(Cl)c3c(c2C)O[C@@](C)([C@H]2CC[C@H](N(C)C)CC2)O3)c(=O)[nH]1 — patients with TEAE (refers to: Hypertension; human patients; oral, 200 mg once daily, 1 day onset day 14): 4.2%
CC(F)(F)c1cc(F)ccc1-c1sc2cc(O)ccc2c1Oc1ccc(/C=C/C(=O)O)cc1 — Tlast (human, serum; oral, 450 mg once daily, cycle 1 day 28, fasted, median): 24 h
COc1ccc(C[C@@H](C)[C@@H](C)Cc2ccc(OC)c(OC)c2)cc1OC — Cmax (beagle dog female, plasma; oral, 300 mg/kg/day, day 1): 2690 ± 1650 ng/mL
CCO[C@H]1CCN(Cc2c(OC)cc(C)c3[nH]ccc23)[C@H](c2ccc(C(=O)O)cc2)C1 — incidence free thyroxine increase (PNH patients, active haemolysis; oral, 25 mg, treatment): 0%
Cc1cc(Nc2ncnc3ccc(NC4=NC(C)(C)CO4)cc23)ccc1Oc1ccn2ncnc2c1 — CL/F (Cytochrome P450 2C8 (CYP2C8, Homo sapiens, UniProt P10632); human, plasma; oral, 300 mg single dose, day 1, arithmetic mean): 129 L/h
C[C@H]1CNC(=O)c2cnn3ccc(nc23)N[C@H](C)c2cc(F)ccc2O1 — unbound concentration (Balb/c nude mice, female, plasma; oral, 15 mg/kg twice daily, 1 h, steady state): 58 ± 19 nM
Cc1cc(NC(=O)c2cccc(NC(=O)/C=C/CN(C)C)c2)ccc1Nc1nccc(-c2cccnc2)n1 — remaining compound (primary hepatocytes, rat Wistar male; 1 µM, 10 min): 92.7%
Cn1cc(-c2ccc(-c3cncc(Cl)c3N3CCC4(CCNC4=O)CC3)cc2)cn1 — log2 fold change (COLO 205; gene expression, microarray, refers to: PLD1 mRNA; concentration not given, 6 h; baseline: untreated cells): 1.1
Cc1c(C(=O)O)ccc2c3n(nc12)[C@@H]1[C@H](C3)N(CC2CC2)[C@@]2(C(=O)Nc3cc(Cl)ccc32)[C@H]1c1cccc(Cl)c1F — adverse event incidence (phase Ia trial, refers to: Anemia; cancer patients; oral, dose not given): 28%
COc1cc2c3c(n(CCCN4CCOCC4)c(=O)c2cc1OC)-c1cc2c(cc1C3=O)OCO2 — CL (beagle dog, male, plasma; intravenous infusion, 50 mg/m^2, 1 h infusion, vehicle 2): 42.4 ± 26 L/h/m²
CCn1cc(C(=O)N2CCOCC2)c(=O)c2cc(NC3Cc4ccccc4C3)cnc21 — AUC(0-inf) (human, fasted; oral suspension, 5 mg single dose, arithmetic mean): 189 ng·h/mL
Cn1cc(Nc2nccc(-c3ccc4c(c3)CN(C3COC3)CC[C@H]4NC(=O)c3cn(C(C)(C)C)nn3)n2)cn1 — CD8+ T cell count change (human, whole blood; 150 mg twice daily, day 14; baseline: pre-dose baseline): -7.02%
CCC(CC)C(=O)Oc1cccc(C(O)CCN)c1.O=CO (centres unmarked) — ERG a-wave amplitude (scotopic ERG; BALB/cJ mice; intraperitoneal, 10 mg/kg, 1 h dark adaptation, with: 10,000 lx photobleach, 10 min): 9 µV and 30 µV and 8 µV and 14 µV and 21 µV
CC(C)(C)c1ccc(C(O)CCCN2CCC(C(O)(c3ccccc3)c3ccccc3)CC2)cc1 (centres unmarked) — mean blood pressure (male Hartley guinea pigs, anaesthetized; intravenous, 1 mg/kg group, baseline before infusion): 38 ± 0.2 mmHg
COc1ncc(-c2nc3c(n2C(C)C)[C@H](c2ccc(Cl)cc2)N(c2cc(Cl)cn(C)c2=O)C3=O)c(OC)n1 — median half-life (human patients, plasma; oral, 250 mg, high-dose arm, cycle 2 day 1): 20.3 h
CC[C@H]1[C@@H](O)[C@@H]2[C@H](CC[C@]3(C)[C@@H]([C@H](C)CCNC(=O)NS(=O)(=O)c4ccc(C(C)(C)C)cc4)CC[C@@H]23)[C@@]2(C)CC[C@@H](O)C[C@@H]12 — Vd/F (ATP-dependent translocase ABCB1 (ABCB1, Homo sapiens, UniProt P08183); human, plasma; dose not given, mean, alone): 228 L
COc1ccc2ccc(C(=N)N)cc2c1-c1cnn(C(C)C)c1 — pKa: 11
CNCCOC12CC3(C)CC(C)(CC(Cn4ncc(-c5ccc(N6CCc7cccc(C(=O)Nc8nc9ccccc9s8)c7C6)nc5C(=O)O)c4C)(C3)C1)C2 — mean arterial pressure change (beagle dog, male, anaesthetised; intravenous bolus, 0.03 mg/kg, 5 min; baseline: baseline): -2%
CN(C)C(=O)c1cc2cnc(Nc3ccc(N4CCNCC4)cn3)nc2n1C1CCCC1 — AUC(0-last) (human, moderate renal impairment, plasma; oral, 400 mg, geometric mean): 7860 ng·h/mL
Cc1cc(-c2nccc3c2ccn3CC(=O)Nc2ccc(-c3cnccn3)cn2)ccn1 — application site scab incidence (healthy human volunteers; oral, 20 mg single dose, single ascending dose): 0%
Cc1ccc([C@@H]2O[C@H](CO)[C@@H](O)[C@H](O)[C@H]2O)cc1Cc1ccc(-c2ccc(F)cc2)s1 — urinary calcium excretion change (Japanese type 2 diabetes patients; 400 mg, day 1, 24 h urine collection; baseline: baseline): -37.9 mg
Cc1c2oc3c(C)ccc(C(=O)N[C@@H]4C(=O)N[C@H](C(C)C)C(=O)N5CCC[C@H]5C(=O)N(C)CC(=O)N(C)[C@@H](C(C)C)C(=O)O[C@@H]4C)c3nc-2c(C(=O)N[C@@H]2C(=O)N[C@H](C(C)C)C(=O)N3CCC[C@H]3C(=O)N(C)CC(=O)N(C)[C@@H](C(C)C)C(=O)O[C@@H]2C)c(N)c1=O — maximum plasma concentration (LC-MS; children with cancer, plasma; dose not given, 4 h): 16.1 µg/L
N#Cc1ccc2c(c1)[C@H]1CCCN(C(=O)c3ccc4[nH]cnc4c3)[C@H]1C2 — androstenedione level (human, male; 80 mg, day 15): 9.5 nmol/L
Cc1cc(Nc2ccc(S(F)(F)(F)(F)F)cc2)n2nc(C(C)(F)F)nc2n1 — patients with any adverse event (Plasmodium falciparum; P. falciparum malaria patients; oral, 250 mg): 63.6%
O=C(c1cccnc1-c1ccncc1)N1CCC(O)(Cc2ccccc2)CC1 — AUClast/dose (healthy Japanese adults, plasma; oral, 200 mg twice daily, day 14): 4.3 ng·h/mL/mg
CC[C@H](C)[C@H](NC(=O)CN)C(=O)N[C@@H](C)C(=O)N[C@@H](CCCCN)C(=O)N[C@@H](C)C(=O)N[C@H](C(=O)N[C@@H](CCCCN)C(=O)N[C@@H](CCCCN)C(=O)N[C@H](C(=O)N[C@@H](C)C(=O)N[C@@H](CCCCN)C(=O)N[C@@H](C)C(=O)N[C@@H](CC(C)C)C(=O)NCC(N)=O)[C@@H](C)CC)[C@@H](C)CC — mean residue ellipticity (circular dichroism at 222 nm; 30% TFE; 100 µM): -6520 deg cm2/dmol
CO[C@H]1C[C@@H]2CC[C@@H](C)[C@@](O)(O2)C(=O)C(=O)N2CCCC[C@H]2C(=O)O[C@H]([C@H](C)C[C@@H]2CC[C@@H](O)[C@H](OC)C2)CC(=O)[C@H](C)/C=C(\C)[C@@H](O)[C@@H](OC)C(=O)[C@H](C)C[C@H](C)/C=C/C=C/C=C/1C — rectal temperature (healthy adult horses; oral, 0.06 mg/kg, 12 h): 37.8 ± 0.6 °C
O=C(COc1ccc(Cl)cc1)NC12CC(c3nnc([C@H]4C[C@@H](OC(F)(F)F)C4)o3)(C1)C2 — treatment-emergent adverse events (moderate maximum severity; healthy human, both sexes; oral, dose not given, 14 days, multiple ascending dose, all doses): 8.8%
CC(C)[C@@H](CS(=O)(=O)C(C)C)N1C(=O)[C@@](C)(CC(=O)O)C[C@H](c2cccc(Cl)c2)[C@H]1c1ccc(Cl)cc1 — AUC(0-inf) (FVB mice Abcb1a/b Abcg2 knockout, spinal cord; oral, 20 mg/kg): 2290 ± 242 ng·h/mL
C=CC(=O)N(C)CCOc1c(N)ncnc1-c1cc(F)cc(NC(=O)c2ccc(C3CC3)cc2F)c1C — mean residence time (human, whole blood; oral, 5 mg, single ascending dose): 0.62 h
CCC(=O)NCC[C@@H]1CCc2cc(O)c3c(c21)CCO3 — specific activity (sulfation, substrate; pooled human kidney cytosol; 50 µM, 30 min, with: 50 mM NaF): 0.8 ± 0.01 pmol/min/mg
O=C(O)CCC(=O)O.[2H]C([2H])([2H])Oc1cc(C)c2[nH]ccc2c1CN1CC[C@@H](C2CC2)C[C@H]1c1ccc(C(=O)O)cc1 — subjects with hyperuricaemia (multiple ascending dose; healthy Chinese subjects; 50 mg twice daily): 25%
O=C1CC[C@H](N2Cc3cc(N4CCN(CC5CCN(c6ccc([C@@H]7c8ccc(O)cc8CC[C@@H]7c7ccccc7)cc6)CC5)CC4)ccc3C2=O)C(=O)N1 — Tlast (human, plasma; oral, 200 mg, median, range, with: rosuvastatin 10 mg): 73.5 h
CC(C)C[C@H](NC(=O)C[C@H](O)[C@H](CC(C)C)NC(=O)[C@H](Cc1c[nH]cn1)NC(=O)CNC(=O)[C@@H](NC(=O)[C@H](C)NC(=O)[C@H](Cc1c[nH]c2ccccc12)NC(=O)[C@H](CCC(N)=O)NC(=O)[C@@H](Cc1ccccc1)NC(=O)COCCOCCNC(=O)CCC(C(=O)O)N1CCN(CC(=O)O)CCN(CC(=O)O)CCN(CC(=O)O)CC1)C(C)C)C(N)=O (some centres unmarked) [lutetium-177 labelled] — tissue uptake (female BALB/c nu/nu mice, liver; intravenous, 100 pmol, 4 h, with: PA 300 µg): 0.13 ± 0.02 %ID/g
CCOc1c([C@H](C)n2nc(C)c3c(N)ncnc32)cc(Cl)c(F)c1[C@@H]1CNC(=O)C1 — ECG observations (refers to: QTcF ≤450 ms; previously treated B-cell malignancy; oral, 45 mg once daily, baseline QTcF ≤450 ms): 100%
CN1C(C(=O)Nc2nnc(C(F)(F)F)s2)=C(O)c2ccccc2S1(=O)=O — pKa (acidic): 2
